Published values of several laboratories.
Lines come from different studies, so protocols differ. ± marks the error that the study gave.
crk3 with CYC6: crk3, with CYC6 (Leishmania mexicana, UniProt O15851)
Chain of UniProt Q16769 (whole entry, looked up): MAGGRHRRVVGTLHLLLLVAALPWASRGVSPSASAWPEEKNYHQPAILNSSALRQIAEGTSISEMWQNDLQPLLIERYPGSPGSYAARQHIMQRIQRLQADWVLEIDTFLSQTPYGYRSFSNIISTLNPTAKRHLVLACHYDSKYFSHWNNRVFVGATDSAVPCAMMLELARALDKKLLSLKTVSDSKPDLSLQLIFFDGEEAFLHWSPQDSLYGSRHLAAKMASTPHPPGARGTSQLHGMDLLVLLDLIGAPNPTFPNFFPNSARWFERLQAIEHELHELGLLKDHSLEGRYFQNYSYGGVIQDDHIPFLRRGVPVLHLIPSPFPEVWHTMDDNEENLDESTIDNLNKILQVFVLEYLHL
Chain of UniProt P32302 (whole entry, looked up): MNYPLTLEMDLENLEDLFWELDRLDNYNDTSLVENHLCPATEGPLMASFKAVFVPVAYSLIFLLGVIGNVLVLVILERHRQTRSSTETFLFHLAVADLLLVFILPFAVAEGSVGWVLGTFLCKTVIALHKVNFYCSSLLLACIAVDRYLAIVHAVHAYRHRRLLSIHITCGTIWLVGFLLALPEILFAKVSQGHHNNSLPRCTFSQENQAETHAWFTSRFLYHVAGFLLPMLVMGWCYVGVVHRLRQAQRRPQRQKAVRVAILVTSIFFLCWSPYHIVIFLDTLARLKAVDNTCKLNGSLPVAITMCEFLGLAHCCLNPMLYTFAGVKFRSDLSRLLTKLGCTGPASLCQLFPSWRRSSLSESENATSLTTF
Chain of UniProt P40306 (whole entry, looked up): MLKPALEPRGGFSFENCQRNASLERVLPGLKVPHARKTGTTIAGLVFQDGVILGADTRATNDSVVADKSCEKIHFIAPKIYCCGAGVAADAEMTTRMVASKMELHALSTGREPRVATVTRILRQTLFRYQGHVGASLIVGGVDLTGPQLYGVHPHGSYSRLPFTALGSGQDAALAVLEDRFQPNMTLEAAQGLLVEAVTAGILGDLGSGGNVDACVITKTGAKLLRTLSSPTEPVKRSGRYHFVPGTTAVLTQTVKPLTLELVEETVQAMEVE
Chain of UniProt Q8N568 (whole entry, looked up): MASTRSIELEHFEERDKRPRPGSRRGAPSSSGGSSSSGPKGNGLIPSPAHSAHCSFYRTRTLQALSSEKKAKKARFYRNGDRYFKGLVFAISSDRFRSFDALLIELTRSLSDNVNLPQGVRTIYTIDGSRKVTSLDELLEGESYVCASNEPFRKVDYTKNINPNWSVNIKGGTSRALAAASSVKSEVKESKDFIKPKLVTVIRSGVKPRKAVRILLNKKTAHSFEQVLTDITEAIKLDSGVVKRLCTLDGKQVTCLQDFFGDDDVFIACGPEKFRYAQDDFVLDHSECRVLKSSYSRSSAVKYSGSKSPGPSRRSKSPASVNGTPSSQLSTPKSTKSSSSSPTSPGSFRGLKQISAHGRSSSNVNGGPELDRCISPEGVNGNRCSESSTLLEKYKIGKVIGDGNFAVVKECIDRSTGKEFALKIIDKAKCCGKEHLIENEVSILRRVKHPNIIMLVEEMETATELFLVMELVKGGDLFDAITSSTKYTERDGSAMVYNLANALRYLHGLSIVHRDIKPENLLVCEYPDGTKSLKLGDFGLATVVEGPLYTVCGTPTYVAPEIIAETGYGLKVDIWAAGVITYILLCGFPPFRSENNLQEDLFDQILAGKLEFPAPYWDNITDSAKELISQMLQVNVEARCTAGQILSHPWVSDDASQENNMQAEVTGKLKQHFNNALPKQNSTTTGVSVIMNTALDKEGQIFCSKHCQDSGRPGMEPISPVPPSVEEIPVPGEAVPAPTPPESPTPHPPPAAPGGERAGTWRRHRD
Chain of UniProt P07374 (whole entry, looked up): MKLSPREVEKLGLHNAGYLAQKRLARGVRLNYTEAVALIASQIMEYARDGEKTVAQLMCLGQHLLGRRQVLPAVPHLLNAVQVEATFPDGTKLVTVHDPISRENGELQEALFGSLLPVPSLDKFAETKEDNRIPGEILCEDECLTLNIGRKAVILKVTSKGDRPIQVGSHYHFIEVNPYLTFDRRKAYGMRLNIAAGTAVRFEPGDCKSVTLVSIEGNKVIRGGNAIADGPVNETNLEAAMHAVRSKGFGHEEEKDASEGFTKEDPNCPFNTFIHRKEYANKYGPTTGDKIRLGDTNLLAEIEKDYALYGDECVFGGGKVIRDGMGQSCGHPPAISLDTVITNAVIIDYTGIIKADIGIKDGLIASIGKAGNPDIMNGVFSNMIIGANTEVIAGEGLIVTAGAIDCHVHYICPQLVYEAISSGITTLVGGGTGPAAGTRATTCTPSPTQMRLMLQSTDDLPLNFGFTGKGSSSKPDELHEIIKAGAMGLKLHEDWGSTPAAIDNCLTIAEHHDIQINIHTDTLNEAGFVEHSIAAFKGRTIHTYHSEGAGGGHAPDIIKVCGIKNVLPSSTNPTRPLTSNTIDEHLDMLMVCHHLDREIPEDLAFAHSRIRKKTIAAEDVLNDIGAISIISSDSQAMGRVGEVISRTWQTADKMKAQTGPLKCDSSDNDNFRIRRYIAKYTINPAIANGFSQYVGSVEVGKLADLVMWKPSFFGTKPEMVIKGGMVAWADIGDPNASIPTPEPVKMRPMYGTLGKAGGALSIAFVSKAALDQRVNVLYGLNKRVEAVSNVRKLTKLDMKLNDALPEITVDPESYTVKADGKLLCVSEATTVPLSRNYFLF
Chain of UniProt Q14123 (whole entry, looked up): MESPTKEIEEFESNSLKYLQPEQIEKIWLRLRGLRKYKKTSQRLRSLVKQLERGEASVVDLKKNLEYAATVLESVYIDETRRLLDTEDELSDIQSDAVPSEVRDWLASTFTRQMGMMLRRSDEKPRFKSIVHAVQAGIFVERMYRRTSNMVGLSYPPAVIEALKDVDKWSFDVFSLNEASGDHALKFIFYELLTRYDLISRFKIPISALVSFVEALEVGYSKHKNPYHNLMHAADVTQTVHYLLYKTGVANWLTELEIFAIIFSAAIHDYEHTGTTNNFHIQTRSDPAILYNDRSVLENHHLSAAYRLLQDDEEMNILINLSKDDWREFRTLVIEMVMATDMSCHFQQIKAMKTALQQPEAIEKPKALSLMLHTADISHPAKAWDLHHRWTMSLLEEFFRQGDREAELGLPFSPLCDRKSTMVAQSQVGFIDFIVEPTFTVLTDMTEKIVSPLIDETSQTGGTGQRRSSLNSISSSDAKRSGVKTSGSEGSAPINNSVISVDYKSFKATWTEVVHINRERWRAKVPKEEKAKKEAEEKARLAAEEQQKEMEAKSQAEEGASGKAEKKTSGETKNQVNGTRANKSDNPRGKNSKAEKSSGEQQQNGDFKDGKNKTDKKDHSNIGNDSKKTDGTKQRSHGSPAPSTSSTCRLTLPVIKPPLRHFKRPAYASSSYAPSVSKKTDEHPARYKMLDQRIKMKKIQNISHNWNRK

Structure (SMILES) | target | assay | setting | IC50 [µM]
Cc1nn(-c2cccc(N)c2)c(=O)c2cnc(Nc3ccc(N4CCNCC4)cc3)nc12 | DCLK2 (Homo sapiens, UniProt Q8N568) | enzyme activity, inhibitor |  | > 10
Cn1cc(-c2ccc3cc(NC(=O)Nc4cccc(C(=O)NO)c4)ccc3c2)cn1 | Alpha-synuclein, pre-formed fibrils (SNCA, Homo sapiens, UniProt P37840) | binding to mouse LAG3 D1, inhibitor, ELISA | added: FLAG-α-syn PFFs 100 nM | 8.12
COC1CCC(C[C@H](NC(=O)[C@H](CC(C)C)NC(=O)[C@H](Cc2ccc(CN)cc2)NC(=O)[C@H](Cc2ccccc2)N=[N+]=[N-])C(=O)[C@@]2(C)CO2)CC1 (stereo partly shown) | Proteasome subunit beta type-10 (Homo sapiens, UniProt P40306) | inhibitor, biochemical |  | 0.287
CC(C)(C)n1ncc2c(=O)n(Cc3cccc(F)c3)c(NCc3ccc(Cl)cn3)nc21 | PDE1C (Homo sapiens, UniProt Q14123) | enzyme activity, inhibitor, radiometric |  | 0.0023
Cc1cncn1Cc1ccc(Oc2cccc(Cl)c2)cc1 | QPCT (Homo sapiens, UniProt Q16769) |  |  | 0.008
O=C(Cc1ccc(OCc2ccccc2)cc1)NC1(C(=O)O)CCN(C(=O)c2ccc(-c3cccc(Cl)c3)cc2)CC1 | CXCR5 (Homo sapiens, UniProt P32302) | antagonist, GloSensor cAMP |  | > 10
O=C(Nc1cc(-c2cccnc2)[nH]n1)C1CCC1 | crk3 with CYC6 | enzyme activity, inhibitor, radiometric | added: Leishmania major CYC6 cyclin, 1 µM ATP | 20
COc1ccc(OC)c(CN2CCN(Cc3cc(OC)c(O)c(OC)c3)CC2)c1 | Alpha-synuclein, fibrils (SNCA, Homo sapiens, UniProt P37840) | fibril growth, inhibitor, FlAsH fluorescence | added: LBD brain-amplified fibril seeds | 16 ± 1
O=C(Nc1cc(-c2ccc(Cl)cc2)[nH]n1)c1cccc(O)c1 | crk3 with CYC6 | enzyme activity, inhibitor, radiometric | added: Leishmania major CYC6 cyclin, 1 µM ATP | 1.1
C1=Cc2ccccc2N(Cc2cc(-c3ccc(OCc4ccccc4)cc3)no2)c2ccccc21 | Urease (Canavalia ensiformis, UniProt P07374) | enzyme activity, inhibitor |  | > 27
